Experimental data pooled from the literature.
Protocols differ between the studies behind these lines. ± marks the error that the study gave.
Organism: Mycobacterium tuberculosis

Structure (SMILES)	assay	test system	setting	measurement	result
O=C(C[N+]1=C(c2ccc(F)c(F)c2)c2cccn2CC1)c1ccccc1	–	H37Rv	with: kanamycin	kanamycin MIC	≤ 1.25 µg/mL
O=c1c2cc(CO)ccc2[nH]c(=S)n1Cc1cccnc1	–	PptT conditional knock-down	–	MIC90	92.2 µM
Cc1ccc(C(=O)C[N+]2=C(c3ccc(F)c(F)c3)c3cccn3CC2)cc1	–	H37Rv	with: kanamycin	kanamycin MIC	≤ 1.25 µg/mL
Nc1nc(N)c2c(Cl)c(CNc3ccc(C(=O)O)cc3)ccc2n1	bacterial growth	DHFR-overexpressing	–	MIC90	1 µM
O=C(C[N+]1=C(c2ccc(F)c(F)c2)c2cccn2CC1)c1ccc(F)cc1	–	H37Rv	with: kanamycin	kanamycin MIC	≤ 1.25 µg/mL
N#Cc1ccccc1Oc1ccc(Cn2cc(C3CCCC3)nn2)cc1O	Alamar Blue	–	6 days plus 24 h, 37 °C	MIC	0.625 µg/mL
O=c1c2ccccc2[nH]c(=S)n1Cc1cccnc1	intracellular growth	THP-1 macrophages, H37Rv-GFP	–	maximum growth inhibition	~72%
CO[C@H]1[C@H](O[C@H]([C@H]2O[C@@H](n3ccc(=O)[nH]c3=O)[C@H](O)[C@@H]2O)[C@H](NCCCNC(=O)[C@@H](NC(=O)[C@@H](NC(=O)N[C@H](C(=O)O)C(C)C)[C@@H]2CCNC(=N)N2)[C@@H](OC(=O)CCCCCCCCCCCCN(O)C(=N)N)C(C)C)C(N)=O)O[C@H](CN)[C@H]1O	alamar blue	H37Rv	–	MIC90	0.04 ± 0.005 µg/mL
Oc1cc(Cn2cc(C3CC3)nn2)ccc1Oc1ccccc1Cl	Alamar Blue	–	6 days plus 24 h, 37 °C	MIC	0.156 µg/mL
CC(=O)Oc1ccc2nc3ccc(=O)cc-3oc2c1	–	mc2 6206 bedaquiline-resistant MmpL5 regulator mutant	7 days	MIC90	> 256 µM
CC(O)c1cc2[nH]c(=S)n(Cc3cccnc3)c(=O)c2cc1Cl (single isomer, unassigned)	–	PptT conditional knock-down	–	MIC90	1.66 µM

Some of these lines once more:
Structure (SMILES)	assay	test system	setting	measurement	result
O=c1c2ccccc2[nH]c(=S)n1Cc1cccnc1	intracellular growth	THP-1 macrophages, H37Rv-GFP	–	maximum growth inhibition	~72%
